{"data": "Experimental data collected from several papers", "note": "Every numbered part comes from another study and shows a few of its results, in no order."}
{"data": "Set 1", "target": "RNA binding protein fox-1 homolog 2, RRM domain, GST-SBP tag (RBFOX2, Homo sapiens, UniProt O43251-10, residues 100-194)", "technique": "RNA Bind-n-Seq", "form": "RNA", "matrix": "in vitro", "tested at": "365 nM", "setting": "natural RNA segment, single round, ends assumed", "baseline": "no-protein control", "direction": "higher = stronger binding", "Target sequence (chain)": "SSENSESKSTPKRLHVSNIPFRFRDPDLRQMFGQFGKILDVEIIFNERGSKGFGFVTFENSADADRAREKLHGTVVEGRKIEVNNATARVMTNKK"}
{"Strand": "GGGAGUUCUACAGUCCGACGAUCCAAAUGGAGAAUGAGCAUCUAAAAAUGACACAUCCCGAAAGGGCAAUCUGUGGAAGUUUGUUGUUUGUUUGUUUUUAUUUUUAAAUGCAUUGUAAAGUGUACUCUAGAGCUGGAAUUCUCGGGUGCCAA", "RBNS enrichment (R)": 0.428}
{"Strand": "GGGAGUUCUACAGUCCGACGAUCGUCACUCUGUAAGUUAUUUUGUACAUUCUCUACUCUUAAAAGUGUCCCCCAGUCAGUUCCUUUAACAGACCUGAGCUUCUAUGAUGCCAAGGGCGUUCACUGCGACCUGGUGGAAUUCUCGGGUGCCAA", "RBNS enrichment (R)": 0.613}
{"Strand": "GGGAGUUCUACAGUCCGACGAUCUUAAUAUAGAUUGAACCAGAAAGGUGACCCCUAGCUGUUGACUUAUUGUCACCCUAAAAAAAAAAAAGGCACAAGGAAAGCUGCCACCUCCCCACCCCUCCUCUUCCUUUUGGAAUUCUCGGGUGCCAA", "RBNS enrichment (R)": 0.276}
{"data": "Set 2", "target": "TAR DNA-binding protein 43, full length, His tag (TARDBP, Homo sapiens, UniProt Q13148, residues 1-414)", "technique": "RNA Bind-n-Seq", "form": "RNA", "matrix": "in vitro", "tested at": "20 nM", "setting": "6-mer, flanks averaged, single round", "with": "150 mM LiCl", "baseline": "input library", "direction": "higher = stronger binding"}
{"Strand": "ACAUCU", "6-mer enrichment (R)": 0.828}
{"Strand": "GAUUGC", "6-mer enrichment (R)": 0.925}
{"Strand": "UUGAAA", "6-mer enrichment (R)": 0.928}
{"Strand": "ACGUAG", "6-mer enrichment (R)": 0.898}
{"Strand": "GUUAUU", "6-mer enrichment (R)": 1.15}
{"data": "Set 3", "target": "Histone acetyltransferase KAT6A, winged helix 2, GST fusion (KAT6A, Homo sapiens, UniProt Q92794, residues 85-181)", "technique": "protein binding microarray", "form": "double-stranded DNA, one strand shown", "matrix": "in vitro", "tested at": "not given", "setting": "8-mer, flanks averaged, mean of 2 arrays, mostly near background", "baseline": "not given", "direction": "higher = stronger binding", "Target sequence (chain)": "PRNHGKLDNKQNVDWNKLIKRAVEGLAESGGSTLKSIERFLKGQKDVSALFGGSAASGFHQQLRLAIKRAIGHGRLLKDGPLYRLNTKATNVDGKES"}
{"Strand": "GAGAACGC", "E-score": 0.0817}
{"Strand": "AAGAACTA", "E-score": 0.0646}
{"Strand": "AGCATCCC", "E-score": -0.156}
{"Strand": "GAAAGGCC", "E-score": -0.0375}
{"Strand": "CTGGGTCA", "E-score": -0.0795}
{"Strand": "TCGTTTCA", "E-score": 0.0413}
{"data": "Other studies, line by line"}
{"Substance": "PhoQ, residues 284 288 289 292 302 303 SLCLSL", "target": "PhoP, residues 12 14 15 18 19 SFCSL (Escherichia coli, UniProt P23836)", "test": "Sort-seq, measured: YFP reporter", "test system": "E. coli", "conditions": "PhoQ-PhoP variant library, with: 10 µM Mg2+", "scale": "baseline: high Mg2+ state, higher = stronger signaling", "quantity": "fold induction", "result": 8.59}
{"note": "Some of these lines once more (set 2):"}
{"Strand": "ACGUAG", "6-mer enrichment (R)": 0.898}
{"Strand": "GAUUGC", "6-mer enrichment (R)": 0.925}
